Assay results from different studies.
Each line is one published result; not all experiments were run side by side. Numbers after ± are the reported error.
UniProt P33261, sequence (whole entry, looked up): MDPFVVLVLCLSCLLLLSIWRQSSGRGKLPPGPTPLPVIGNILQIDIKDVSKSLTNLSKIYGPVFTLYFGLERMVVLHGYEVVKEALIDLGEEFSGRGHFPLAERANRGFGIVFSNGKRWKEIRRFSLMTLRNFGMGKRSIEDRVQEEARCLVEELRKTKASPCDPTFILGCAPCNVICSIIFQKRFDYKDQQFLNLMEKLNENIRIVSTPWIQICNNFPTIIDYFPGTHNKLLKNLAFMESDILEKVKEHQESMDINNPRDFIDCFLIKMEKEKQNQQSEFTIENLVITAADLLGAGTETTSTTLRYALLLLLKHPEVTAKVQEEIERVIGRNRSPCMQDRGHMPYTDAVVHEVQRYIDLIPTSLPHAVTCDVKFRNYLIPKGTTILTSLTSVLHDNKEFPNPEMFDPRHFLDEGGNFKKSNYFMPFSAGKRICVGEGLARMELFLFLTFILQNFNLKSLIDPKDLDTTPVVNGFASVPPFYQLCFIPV

| Compound | tested on | test | system | conditions | scale | endpoint | result |
| --- | --- | --- | --- | --- | --- | --- | --- |
| CC(C)c1noc(C2CCN(c3ncnc(Nc4ccc(OCC[18F])cc4)c3[N+](=O)[O-])CC2)n1 | – | ex vivo biodistribution after PET | C57BL/J male mice, intestine | 60 min | – | tissue uptake | 2.11 ± 0.48 %ID/g |
| C=CC(=O)Nc1cccc(Cn2ncc3cnc(Nc4cnn(CCOC)c4)nc32)c1 | ROCK1 human | binding, KINOMEscan | – | 100 nM | lower = stronger binding | percent of control | 74% |
| COc1cccc(OC)c1-c1cc(C(=O)NC2(C(=O)O)C3CC4CC(C3)CC2C4)nn1-c1ccc(C(=O)N(C)CCOCCN(C)C(=O)[C@H](CCCCNC(=O)[C@H](CC(C)C)NC(=O)C2OC2C(=O)O)NC(=O)CN2CCN(CC(=O)[O-])CCN(CC(=O)[O-])CCN(CC(=O)[O-])CC2)cc1C(C)C.[177Lu+3] (mixture of isomers) | – | – | mouse, HT-29 xenograft, HT-29 tumour | 72 h post injection | – | tissue uptake | 2.55 %ID/g |
| COC1CN([C@H]2CC[C@H]([C@@]3(C)Oc4c(Cl)cc(C(=O)NCc5c(SC)cc(C)[nH]c5=O)c(C)c4O3)CC2)C1 | – | RNA-seq, refers to: B3GALNT1 mouse homolog | mouse, HT-1376 xenograft, whole blood | dose not given | baseline: vehicle | log2 fold change | 0.671 |
| [11CH3]N1CCC(NC(=O)c2cc(-c3c(O)cc(O)cc3Oc3ccc([N+](=O)[O-])cc3)on2)CC1 | – | – | Wistar rat, female, healthy, blood | intravenous, 2 min | – | tissue uptake | 17.6 ± 1.5 %ID |
| COc1cccc(OC)c1-c1cc(C(=O)NC2(C(=O)O)C3CC4CC(C3)CC2C4)nn1-c1ccc(C(=O)NCCNC(=O)[C@H](CCCCNC(=O)[C@H](CC(C)C)NC(=O)C2OC2C(=O)O)NC(=O)CN2CCN(CC(=O)[O-])CCN(CC(=O)[O-])CCN(CC(=O)[O-])CC2)cc1C(C)C.[177Lu+3] (mixture of isomers) | – | – | mouse HT-29 xenograft, large intestine | 72 h post injection, biodistribution | – | tissue uptake | 0.25 %ID/g |
| CC(C)Cc1ccc(C(C)C(=O)N[C@@H](CCCCNC(=O)CCOCCOCCOCCOCCOCCOCCNC(=O)CN2CCN(CC(=O)[O-])CCN(CC(=O)[O-])CCN(CC(=O)[O-])CC2)C(=O)Nc2cccc3c(C(=O)NCC(=O)N4CC(F)(F)C[C@H]4C#N)ccnc23)cc1.[177Lu+3] (stereo partly shown) | – | – | mouse, U-87 MG tumour xenograft, salivary gland | 4 h | – | tissue uptake | 12.7 ± 3.16 %ID/g |
| CCCC[C@H](NC(=O)CNC(=O)CNC(=O)[C@H](CCCCNC(=O)[C@H](CC(=O)O)NC(=O)C(C)c1ccc(CC(C)C)cc1)NC(=O)CN1CCN(CC(=O)O)CCN(CC(=O)O)CCN(CC(=O)O)CC1)C(=O)N[C@H]1CC(=O)NCCCC[C@@H](C(N)=O)NC(=O)[C@H](Cc2c[nH]c3ccccc23)NC(=O)[C@H](CCCNC(=N)N)NC(=O)[C@@H](Cc2ccccc2)NC(=O)[C@H](Cc2c[nH]cn2)NC1=O (stereo partly shown) [lutetium-177 labelled] | – | – | C57 mouse, lung | intravenous, 2 h, added: 10 µg NDP-MSH co-injection | – | tissue uptake | 1.22 ± 0.56 %ID/g |
| COc1cccc(OC)c1-c1cc(C(=O)NC2(C(=O)O)C3CC4CC(C3)CC2C4)nn1-c1ccc(C(=O)N(C)CCOCCOCCN(C)C(=O)[C@H](CCCCNC(=O)[C@H](CC(C)C)NC(=O)C2OC2C(=O)O)NC(=O)CN2CCN(CC(=O)[O-])CCN(CC(=O)[O-])CCN(CC(=O)[O-])CC2)cc1C(C)C.[177Lu+3] (mixture of isomers) | – | – | mouse HT-29 xenograft, small intestine | 168 h post injection, biodistribution | – | tissue uptake | 0.054 %ID/g |
| Nc1ncc(-c2cc(-c3cnn(CC(F)(F)F)c3)ncc2F)nc1C(=O)NC1CNCC(F)C1 (stereo not shown) | SNRK | KINOMEscan | – | 1 µM | baseline: DMSO control | remaining binding | 64% |
| CNS(=O)(=O)Nc1nccc(Cc2c(C)c3ccc(Oc4ncccc4F)cc3oc2=O)c1F | TOV112D | cell viability | – | 7 days | – | IC50 | 859 nM |
| COc1cccc(OC)c1-c1cc(C(=O)NC2(C(=O)O)C3CC4CC(C3)CC2C4)nn1-c1ccc(C(=O)N(C)CCCN(C)CCCN(C)C(=O)[C@H](CCCCNC(=O)[C@H](CC(C)C)NC(=O)C2OC2C(=O)O)NC(=O)CN2CCN(CC(=O)[O-])CCN(CC(=O)[O-])CCN(CC(=O)[O-])CC2)cc1C(C)C.[177Lu+3] (mixture of isomers) | – | – | mouse, HT-29 xenograft, lung | 24 h post injection | – | tissue uptake | 0.5 %ID/g |
| N#C[C@@H]1CC(F)(F)CN1C(=O)CNC(=O)c1ccnc2c(NC(=O)CCOCCOCCOCCOCCOCCOCCNC(=O)[C@H](CCCCNC(=O)CN3CCN(CC(=O)[O-])CCN(CC(=O)[O-])CCN(CC(=O)[O-])CC3)NC(=O)CCCc3ccc(I)cc3)cccc12.[177Lu+3] | – | – | mouse, U-87 MG tumour xenograft, salivary gland | 48 h | – | tissue uptake | 0.43 ± 0.14 %ID/g |
| COc1cccc(OC)c1-c1cc(C(=O)NC2(C(=O)O)C3CC4CC(C3)CC2C4)nn1-c1ccc(C(=O)N(C)CCCN(C)C(=O)[C@H](CCCCNC(=O)[C@H](CC(C)C)NC(=O)C2OC2C(=O)O)NC(=O)CN2CCN(CC(=O)[O-])CCN(CC(=O)[O-])CCN(CC(=O)[O-])CC2)cc1C(C)C.[177Lu+3] (mixture of isomers) | – | – | mouse, HT-29 xenograft, brain | 72 h post injection | – | tissue uptake | 0.014 %ID/g |
| CCCC[C@H](NC(C)=O)C(=O)N[C@@H](CO)C(=O)N[C@H](C(=O)N1CCC[C@H]1C(=O)N[C@]1(C)CCCCCCC=CCCC[C@@](C)(C(=O)N[C@@H](Cc2ccccc2)C(=O)N[C@@H](CCCCN)C(=O)N[C@@H](CCCNC(=N)N)C(=O)N[C@@H](CC(C)C)C(=O)N[C@@H](CCC(N)=O)C(N)=O)NC(=O)[C@H](CCCNC(=N)N)NC(=O)[C@H](CCCC)NC(=O)[C@H](CC(C)C)NC(=O)[C@H](CCCNC(=N)N)NC(=O)[C@H](CCCNC(=N)N)NC(=O)[C@H](CCCNC(=N)N)NC1=O)[C@@H](C)O | proteinase K | LC-MS | – | 25 µM, 553.6 min, pH 7.4 | – | remaining peptide | 38.8% |
| N#C[C@@H]1CC(F)(F)CN1C(=O)CNC(=O)c1ccnc2c(NC(=O)[C@H](CCCCNC(=O)CCOCCOCCOCCOCCOCCOCCNC(=O)CN3CCN(CC(=O)[O-])CCN(CC(=O)[O-])CCN(CC(=O)[O-])CC3)NC(=O)CCCc3ccc(I)cc3)cccc12.[177Lu+3] | – | – | mouse, U-87 MG tumour xenograft, brain | 4 h | – | tissue uptake | 0.22 ± 0.25 %ID/g |
| O=C(O)CCCOc1ccc([18F])cc1-c1cc(-c2ccccc2C(F)(F)F)n(-c2ccccc2)n1 | – | – | mouse, bone | intravenous, dose not given, 360 min | – | tissue uptake | 2.31 ± 0.34 %ID/g |
| O=C(NCC1OC2CCC=CCCC2O1)c1ccc(COCCOCCOCC[18F])cc1 (stereo not shown) | – | – | healthy female BALB/c nude mice, bladder | intravenous, 7.4 MBq per mouse, 120 min | – | tissue uptake | 1.9 ± 0.2 %ID/g |
| [123I]c1ccc2nc(-c3ccc(-n4ccnn4)nc3)cn2c1 | – | – | male Wistar rat, large intestine | intravenous, 4 MBq, 30 min | – | tissue uptake | 0.118 ± 0.003 %ID/g |
| CC[C@H](C)[C@H](NC(=O)C[C@H](NC(=O)CN1CCN2CCN(CC1)CC(=O)[O][Al]([18F])[O]C(=O)C2)C(=O)O)C(=O)N[C@H]1CCc2cccc3c2N(C1=O)[C@H](C(=O)NCc1cn[nH]n1)C3 | – | – | C57BL/6J mice, MC-38 tumour, anti-PD-1 treated, heart | 0.5 h | – | tissue uptake | 0.62 ± 0.05 %ID/g |
| CN1CCCNC(=O)c2cccc(c2)C(=O)NCCCN(C)CCCNc2cccc3c2C(=O)c2cccc(c2C3=O)NCCC1 | mouse bone marrow cells | CCK-8 | – | 15 µM, 48 h | baseline: untreated | viability | 15.6% |
| CNC(=O)C1CCCN(C(=O)C2CC3CCC2N3C(=O)[C@@H]2C[C@@H](O)CN2C(=O)NCc2cccc(Cl)c2F)C1 (mixture of isomers) | CYP2C19 (Homo sapiens, UniProt P33261) | enzyme activity, inhibitor, time-dependent inhibition | – | 0.206 µM, preincubated without NADPH | baseline: negative control | remaining activity | 83.3% |

Some of these lines once more:
| Compound | tested on | test | system | conditions | scale | endpoint | result |
| --- | --- | --- | --- | --- | --- | --- | --- |
| COC1CN([C@H]2CC[C@H]([C@@]3(C)Oc4c(Cl)cc(C(=O)NCc5c(SC)cc(C)[nH]c5=O)c(C)c4O3)CC2)C1 | – | RNA-seq, refers to: B3GALNT1 mouse homolog | mouse, HT-1376 xenograft, whole blood | dose not given | baseline: vehicle | log2 fold change | 0.671 |
| [11CH3]N1CCC(NC(=O)c2cc(-c3c(O)cc(O)cc3Oc3ccc([N+](=O)[O-])cc3)on2)CC1 | – | – | Wistar rat, female, healthy, blood | intravenous, 2 min | – | tissue uptake | 17.6 ± 1.5 %ID |
